Published values of several laboratories.
Compare with care: the assays were run in different laboratories. ± gives the spread as reported.

Compound | assay | test system | conditions | how to read | measurement | result
Oc1ccc2ccccc2c1/N=N/c1ccccc1 | – | extracted rat blood QC samples | 0.2 µg/L, 4 h, room temperature, short-term stability | – | measured concentration | 0.198 µg/L
CC(=O)N[C@H](CCNC(=O)c1cc(NC(=O)c2cc(NC(=O)c3cc(NC(=O)c4nccn4C)cn3C)cn2C)cn1C)C(=O)Nc1cn(C)c(C(=O)Nc2cc(C(=O)Nc3cc(C(=O)Nc4cc(C(=O)NCCCN(C)CCCN[14C](=O)c5cccc([14C](=O)O)c5)n(C)c4)n(C)c3)n(C)c2)n1 | – | BALB/c male mouse | intraperitoneal, 15 nmol per animal, 24 h | – | pancreas concentration | 0.15 mg/kg
CSCC(NC(=O)c1cc(Cl)ccc1Cl)C(=O)NC(CC(C)C)B(O)O (stereo not drawn) | – | Sprague-Dawley rat | oral, 0.6 mg/kg | – | detection in brain | not detected
CCc1cc(Nc2nc(-c3ccc(-n4cnc(C)c4)c(F)c3)cs2)c(C)cc1C | – | human, both sexes, plasma | oral, 200 mg, day 1, multiple dose, geometric mean | – | AUC(0-last) | 3250 ng·h/mL
NC[C@@H](C(=O)Nc1ccc(-c2cn[nH]c2)cc1)c1ccccc1 | OECD 405 eye irritation | New Zealand White rabbit, eye | topical, 0.1%, 25 h (day 2), scale 0 to 4 | direction not given | chemosis score | 0
C[Si](C)(C)C[C@H](CN)CC(=O)O | – | Sprague-Dawley rat, male, brain | oral, 30 mg/kg, estimated as Cmax x Kp | – | brain Cmax | 6.5 µM
CCCCCCCCCCC(=O)C(F)(F)F | 19F NMR | chloroform | – | – | hydrate fraction | 0%
OCc1cn(Cc2ccc(-c3noc(-c4ccc(OCC[18F])c(C(F)(F)F)c4)n3)cc2)nn1 | – | Lewis rats, female, thalamus | intravenous, 5 min | – | brain uptake | 0.46 %ID/g
Cc1ccc(C(=O)OCc2ccc([C@@H](CN)C(=O)Nc3ccc4cnccc4c3)cc2)c(C)c1 | – | aqueous solution | 7 d, pH 4.8, 5 °C, with: timolol maleate | – | content remaining | < 50%
COCC1CN(C2CCN(c3cc(OC)c(Nc4ncc(Br)c(Nc5ccc6c(c5P(C)(C)=O)OCCO6)n4)cc3C)CC2)C1 | – | human patients | oral, 10 to 240 mg once daily | – | treatment-related Hypokalemia, all grades | 11.1%
O=C(NCCCN(CCCCN(CCCNC(=O)c1cccc(=O)n1[O-])C(=O)c1cccc(=O)n1[O-])C(=O)c1cccc(=O)n1[O-])c1cccc(=O)n1[O-].[89Zr+4] | – | mouse, bone | 10 min | – | tracer uptake | 1.04 %ID/g
C#CCN(CCCNC(=O)CCCCC[N+]1=C(/C=C/C2=C(Cl)C(=C/C=C3\N(CCCCCC(=O)[O-])c4ccccc4C3(C)C)/CCC2)C(C)(C)c2ccccc21)CCCOc1ccc(Cl)cc1Cl | – | mouse plasma | 0.01 µg/mL nominal, 2 weeks, -80 °C | – | concentration | 10 ± 4 ng/mL
CN1CCC[C@]1(C)/C=C/S(=O)(=O)NC(=O)Nc1c2c(cc3c1CCC3)CCC2 | – | human, plasma | oral, 100 mg twice daily, day 14, multiple ascending dose | – | Tmax after second dose, median | 1 h
CC(C)[C@H](NC(=O)CNC(=O)[C@H](CCC(N)=O)NC(=O)[C@H](C)N)C(=O)O | – | human, plasma | intravenous infusion, 15 mg/kg/h, 2 h infusion, geometric mean | – | Vd | 19 L/kg
CNc1cc(OC)c(Nc2nccc(-c3cn(C4CC4)c4ccccc34)n2)cc1NC(=O)CCSCC(N)C(=O)O (stereo not drawn) | radio-HPLC, co-eluting peaks pooled | human, urine | 0 to 96 h, sample holds 4.16% dose | reference: dose | excreted amount | 0.07%
[11CH3]c1ccc2nc(C3CCC3)n(-c3ccc4[nH]ncc4c3)c2n1 | radio-HPLC | Sprague-Dawley rat, plasma | 10 min | – | intact parent fraction | 55%
CN1CCC(N[C@@H]2CCc3[nH]c4c(C(N)=O)ccc(-c5ccccc5Cl)c4c3C2)CC1 | – | BALB/c mice, plasma | oral, 10 mg/kg | – | AUC(0-inf) | 479 ± 144 ng·h/mL

Compound | assay | test system | conditions | how to read | measurement | result
COc1ccnc(C[S+]([O-])c2nc3cc(-n4cccc4)ccc3[nH]2)c1C (stereo not drawn) | – | male Sprague Dawley rats, plasma | oral, 10 mg/kg ilaprazole racemate | – | Vz/F | 14.5 ± 9 L/kg
CC(C)[C@H](NC(=O)[C@@H]1CCCN1C(=O)[C@H](CCCNC(=N)N)NC(=O)[C@H](CS)NC(=O)[C@H](Cc1c[nH]c2ccccc12)NC(=O)[C@H](CCCNC(=N)N)NC(=O)[C@@H](Cc1ccccc1)NC(=O)[C@H](Cc1c[nH]cn1)NC(=O)[C@H](CCC(=O)O)NC(=O)[C@H](CS)NC(=O)[C@H](CS)NC(=O)[C@@H]1CC(=O)N[C@@H](CCCNC(=N)N)C(=O)NCC(=O)N[C@@H](CC(=O)O)C(=O)N[C@H](Cc2ccc(O)cc2)C(=O)N1)C(N)=O [technetium-99m labelled] | – | C57 mouse, female, B16/F1 melanoma, lung | intravenous, 0.037 MBq, 24 h | – | tissue uptake | 0.24 ± 0.08 %ID/g
COc1cc2c(cc1OC)CN(CCCCn1ccc3cc(OCC[18F])ccc31)C2 | – | male CD-1 mouse, liver | intravenous, 2 h | – | tracer uptake | 14.6 %ID/g
CCCCCCCC(=O)NCC(=O)N[C@@H](C)C(=O)N[C@H](C(=O)N[C@@H](C)C(=O)N[C@H](C(=O)N[C@@H](CCCCN)C(=O)N[C@@H](CCC(N)=O)C(=O)N[C@H](C(=O)N[C@@H](CCCCN)C(=O)N[C@@H](CCCCN)C(=O)N[C@@H](CC(C)C)C(=O)N[C@@H](Cc1ccccc1)C(=O)N[C@@H](CCCCN)C(=O)N[C@@H](CCCCN)C(=O)N[C@@H](CCCCN)C(=O)NCC(=O)NCC(N)=O)C(C)C)[C@@H](C)CC)[C@@H](C)O | reversed-phase HPLC | C18 column | hydrophobicity | – | acetonitrile at elution | 55%
N=C(N)NCCC[C@@H]1NC(=O)[C@H](Cc2c[nH]c3ccccc23)NC(=O)[C@@H](CC2CCCCC2)NC(=O)[C@@H]2CCCN2C(=O)[C@@H](NC(=O)CCc2ccccc2)CCCNC1=O | – | C57BL/6J mice, urine | oral, 1 mg/kg, up to 90 min | – | amount excreted unchanged | 4.2 ± 0.5 ng
Cc1cc(O)cc(O)c1C(=O)c1c2c3c(c(O)cc(C)c3oc1=O)C(=O)c1c(O)cc(O)cc1-2 | – | Caco-2 | 50 µM, 3 h, pH 7.4 | – | Papp A→B | 2.91 ×10⁻⁶ cm/s
COC(=O)C(c1ccccc1Cl)N1CCC(SCC(=O)c2cccc(OC)c2)C(=CC(=O)O)C1 (mixture of isomers) | – | feline plasma | -80 °C | – | storage stability time | 9 months
CCCC[C@H](NC(=O)CNC(=O)CNC(=O)CN1CCN(CC(=O)O)CCN(CC(=O)O)CC1)C(=O)N[C@H]1CC(=O)NCCCC[C@@H](C(N)=O)NC(=O)[C@H](Cc2c[nH]c3ccccc23)NC(=O)[C@H](CCCNC(=N)N)NC(=O)[C@@H](Cc2ccccc2)NC(=O)[C@H](Cc2c[nH]cn2)NC1=O [gallium-67 labelled] | – | C57 mice, B16/F1 melanoma | 4 h | – | tumour to skin uptake ratio | 28.1
COc1cc(NC(C)=O)c2c(c1O)-c1c(OC)c(OC)cc3c1C(C2)N(C)CC3 (stereo not drawn) | – | rat lung homogenate | 100 µg/mL, 4 h, room temperature, short-term storage | – | remaining compound | 94.6 ± 3.9%
CCCC[C@H](NC(C)=O)C(=O)N[C@H]1CC(=O)NCCCC[C@@H](C(=O)N[C@@H](C(=O)N2CCC[C@@H]2C(N)=O)C(C)C)NC(=O)[C@H](Cc2c[nH]c3ccccc23)NC(=O)[C@H](CCCN=C(N)N)NC(=O)[C@@H](Cc2ccc3ccccc3c2)NC(=O)[C@@H]2CCCN2C1=O | – | Beagle dog, both sexes, plasma | subcutaneous, once daily, 2.25 mg/kg, day 1 | – | AUC | 30500 ± 2700 ng·h/mL
Cn1c(=O)oc2ccc(-c3ccc(CC(C#N)NC(=O)C4CNCCCO4)c(F)c3)cc21 (stereo not drawn) | – | human | oral, 10 mg once daily, TEAE, multiple ascending dose | – | bacterial test positive incidence | 0%
CN(CCCN=Cc1ccccc1[O-])CCN(C)CCCN=Cc1ccccc1[O-].[67Ga+3] | – | rat | intravenous, 1 min | reference: heart over blood | tissue uptake ratio | 6.5 ± 0.3
CC(C)(O)c1ncc([S@](N)(=O)=NC(=O)Nc2c3c(cc4c2CCC4)CCC3)s1 | – | healthy human subjects | oral, dose not given | – | subjects with drug-related TEAEs | 22%
CC(C)c1cnc(-c2cc(Cl)ccc2F)cc1Nc1ccncc1C(=O)NC(CO)CO | – | patients, phase I monotherapy | oral, dose not given, grade 1 | – | patients with AST increase | 14.3%
COC(=O)c1ccc(CCc2cc3cc4nc(c(OC)c5[nH]c(cc6nc(cc2[nH]3)CC6(C)C)cc5CCCNC(=O)OC(C)(C)C)C(=O)C4(C)C)cc1 | – | DMF | room temperature | – | singlet excited-state lifetime | 3.28 ns
C=C(c1ncc(C(=O)O)cn1)c1cc2c(cc1C)C(C)(C)CCC2(C)C | – | Sprague-Dawley rat, male | oral, 100 mg/kg, 24 h, sesame oil vehicle | – | blood cholesterol | 47 ± 7.5 mg/dL

For quick reference, copied from above:
Compound | assay | test system | conditions | how to read | measurement | result
COc1cc2c(cc1OC)CN(CCCCn1ccc3cc(OCC[18F])ccc31)C2 | – | male CD-1 mouse, liver | intravenous, 2 h | – | tracer uptake | 14.6 %ID/g
CC(C)[C@H](NC(=O)CNC(=O)[C@H](CCC(N)=O)NC(=O)[C@H](C)N)C(=O)O | – | human, plasma | intravenous infusion, 15 mg/kg/h, 2 h infusion, geometric mean | – | Vd | 19 L/kg
CC(=O)N[C@H](CCNC(=O)c1cc(NC(=O)c2cc(NC(=O)c3cc(NC(=O)c4nccn4C)cn3C)cn2C)cn1C)C(=O)Nc1cn(C)c(C(=O)Nc2cc(C(=O)Nc3cc(C(=O)Nc4cc(C(=O)NCCCN(C)CCCN[14C](=O)c5cccc([14C](=O)O)c5)n(C)c4)n(C)c3)n(C)c2)n1 | – | BALB/c male mouse | intraperitoneal, 15 nmol per animal, 24 h | – | pancreas concentration | 0.15 mg/kg
